Experimental data of several laboratories.
“And” joins repeats or separate records; there may be more than shown. Numbers after ± are the reported error.
Gria2/Glutamate receptor 3: Gria2/Glutamate receptor 3 (Rattus norvegicus, UniProt P19491+P19492)
USP14: Ubiquitin carboxyl-terminal hydrolase 14 (USP14, Homo sapiens, UniProt P54578)
SLC6A9: Sodium- and chloride-dependent glycine transporter 1 (SLC6A9, Homo sapiens, UniProt P48067)

| SMILES | tested on | test | system | conditions | scale | endpoint | value |
| --- | --- | --- | --- | --- | --- | --- | --- |
| CCCCCC=CC=C1C(=O)C=CC1CC=CCCCC(=O)O (stereo not shown) | 60 kDa heat shock protein, mitochondrial (Homo sapiens, UniProt P10809) | competitive isoTOP-ABPP, measured: HSPD1 cysteine peptide | proteome, soluble, MDA-MB-231 | 100 µM, added: iodoacetamide probe | baseline: DMSO over compound-treated, higher = stronger cysteine blockade | isoTOP-ABPP competition ratio | 1.5 |
| COC(=O)Cc1cc2c(cc1C(=O)c1cccc(Br)c1)OCO2 | Gria2/Glutamate receptor 3 | glutamate-evoked current, whole-cell patch clamp | HEK-293T | concentration not given, glutamate alone after washout, added: glutamate |  | current amplitude after recovery | 485 ± 41 pA |
| CCCCCCCCCCCCC/C=C/C=O | Large ribosomal subunit protein uL4 (Homo sapiens, UniProt P36578) | competitive isoTOP-ABPP, measured: RPL4 cysteine peptide | Ramos soluble proteome | 100 µM, added: iodoacetamide probe | baseline: DMSO over compound-treated, higher = stronger cysteine blockade | isoTOP-ABPP competition ratio | 1 |
| Cc1cc(N)n(N)c(=O)c1 | USP14 | enzyme activity, inhibitor |  | 17 µM |  | inhibition | 36% |
| CC(C)Oc1cc(Cl)ccc1CNc1cc(-c2ccccc2)nc2ncnn12 | G-protein coupled receptor 3 (GPR3, Homo sapiens, UniProt P46089, L136A) | cAMP level, cAMP GloSensor |  | 100 nM | higher = more cAMP | cAMP luminescence | 51800 a.u. and 48900 a.u. and 37900 a.u. and 52100 a.u. |
| CC(=O)C12NC(C)(C)CC1(C)C(=O)C1=C2c2c(c3c4n2C(C)(C)CC2=C4C4(CC(C)(C)NC(C)(C4)C2=O)CC3(C)C)C(=O)C(C)(C)N1 (single isomer, unassigned; (-)) | Sodium channel protein type 10 subunit alpha (SCN10A, Homo sapiens, UniProt Q9Y5Y9) | sodium current, antagonist, whole-cell patch clamp | HEK293T cells | 10 µM, half-inactivated state (TP2) |  | inhibition | 33% |
| C[n+]1ccc(/C=N/NC(=O)c2cc(C(=O)N/N=C/c3cc[n+](C)cc3)ncn2)cc1 | hp2 hairpin duplex DNA | FRET melting |  | 1 µM, added: ds26 10 µM |  | ΔTm | 0 ± 0.3 °C |
| O=C(O)Cc1cc2c(cc1C(=O)c1ccccc1Cl)OCO2 | Gria2/Glutamate receptor 3 | glutamate-evoked current, whole-cell patch clamp | HEK-293T | concentration not given, glutamate alone after washout, added: glutamate |  | current amplitude after recovery | 540 ± 31 pA |
| O=C1c2sc(-c3ccc(N4CCC(CO)CC4)nc3F)nc2CCN1c1cccnc1 | TAR DNA-binding protein 43, aggregated (TARDBP, Homo sapiens, UniProt Q13148) | radioligand binding | control brain sarkosyl-insoluble extract | 3.53 nM |  | specific binding | -0.012 nM |
| CC1=NN(c2ccccc2)C(=O)C1=C1C(=O)N(c2ccccc2)N=C1C | USP14 | enzyme activity, inhibitor |  | 17 µM |  | inhibition | 93% |
| CCCCCCCO[C@H]1[C@H](OC)O[C@H](CO)[C@@H](O)[C@H](O)[C@@H]1O | Type 1 fimbrin D-mannose specific adhesin, lectin domain (fimH, Escherichia coli K-12, UniProt P08191) | isothermal titration calorimetry |  | concentration not given, 25 °C |  | enthalpy change (ΔH obs) | -6.67 kcal/mol |
| O=C(O)C1CCCN(CC=CC(c2ccc3ccsc3c2)(c2ccc3ccsc3c2)c2ccc3ccsc3c2)C1 (stereo not shown) | SLC6A9 | cell-free assay |  | 1 µM |  | remaining signal | 82.5% |
| [N-]=[N+]=N[C@]1(COP(=O)(O)OP(=O)(O)OP(=O)(O)O)O[C@@H](n2ccc(N)nc2=O)[C@@H](F)[C@@H]1O | DNA polymerase subunit gamma-1 (POLG, Homo sapiens, UniProt P54098) | single-nucleotide incorporation, substrate |  |  |  | Vmax | 0.29 product fraction |
| COc1ccc(C(OCCNCc2cc(F)c(O)c(F)c2)(c2ccc(OC)cc2)c2ccc(OC)cc2)cc1 | SLC6A9 | cell-free assay |  | 1 µM |  | remaining signal | 96.7% |
| N#CC(=Cc1cn(CC(=O)O)c2ccccc12)c1ccc(F)cc1 | USP14 | enzyme activity, inhibitor |  | 17 µM |  | inhibition | 5% |
| O=C(N/N=C/c1ccc(C[n+]2ccccc2)cc1)c1cncc(C(=O)N/N=C/c2ccc(C[n+]3ccccc3)cc2)n1 | hp2 hairpin duplex DNA | FRET melting |  | 1 µM |  | ΔTm | 1.3 °C |
| NC(=O)C[C@@H]1NC(=O)[C@H](Cc2ccc(O)cc2)NC(=O)CNC(=O)CNC(=O)[C@H](CCC(=O)O)NC(=O)[C@H](CCC(=O)O)NC(=O)[C@H](Cc2ccccc2)NC(=O)[C@@H]2CCCN2C1=O | EH domain-containing protein 1, EH domain (Homo sapiens, UniProt Q9H4M9) | ITC |  | concentration not given, 150 mM NaCl |  | binding stoichiometry | 1.06 ± 0.03 |
| Cc1ncc(CNc2nc(N3CC(CCOc4cc(-c5scnc5C)ccc4CNC(=O)[C@@H]4C[C@@H](O)CN4C(=O)[C@@H](NC(=O)C4(F)CC4)C(C)(C)C)C3)nc(N3CCC[C@H]3Cn3ccnn3)n2)c(N)n1 | VHL/BRD9, with Elongin B/C (Homo sapiens, UniProt P40337+Q9H8M2) | native mass spectrometry |  | 5 µM, added: BRD9 and VCB at 5 µM | baseline: unbound BRD9 | ternary complex formation | 16% |
| CC[C@H](C)[C@H](NC(=O)CN)C(=O)N[C@@H](Cc1ccc(O)cc1)C(=O)N[C@H](C(=O)N[C@H](C(=O)N[C@@H](Cc1c[nH]c2ccccc12)C(=O)NCC(=O)N1CCC[C@H]1C(=O)N[C@H](C(=O)N[C@@H](C)C(=O)N[C@@H](C)C(=O)N[C@@H](CCC(=O)O)C(=O)N[C@@H](CCC(N)=O)C(=O)N[C@@H](CC(N)=O)C(=O)N1CCC[C@H]1C(=O)N[C@H](C(=O)N[C@@H](Cc1ccc(O)cc1)C(=O)N[C@@H](Cc1c[nH]c2ccccc12)C(=O)N[C@@H](C)C(=O)N[C@@H](CCCNC(=N)N)C(=O)N[C@@H](Cc1ccc(O)cc1)C(=O)N[C@@H](C)C(=O)N[C@@H](CC(=O)O)C(=O)N[C@@H](Cc1c[nH]c2ccccc12)C(=O)N[C@@H](CC(C)C)C(=O)N[C@@H](Cc1ccccc1)C(=O)N[C@H](C(=O)N[C@H](C(=O)N1CCC[C@H]1C(=O)N[C@@H](CC(C)C)C(=O)N[C@@H](CC(C)C)C(=O)N[C@@H](CC(C)C)C(=O)N[C@@H](CC(C)C)C(=O)N[C@@H](CC(=O)O)C(=O)N[C@@H](CC(C)C)C(=O)N[C@@H](C)C(=O)N[C@@H](CC(C)C)C(=O)N[C@@H](CC(C)C)C(=O)N[C@H](C(=O)N[C@@H](CC(=O)O)C(=O)N[C@@H](C)C(=O)N[C@@H](CC(=O)O)C(=O)N[C@@H](CCC(=O)O)C(=O)NCC(=O)N[C@H](C(=O)N[C@@H](CCCCNC(=O)CCCCCN1C(=O)CC(SC[C@H](N)C(=O)N[C@@H](Cc2c[nH]cn2)C(=O)N[C@@H](Cc2c[nH]cn2)C(=O)N[C@@H](Cc2c[nH]cn2)C(=O)N[C@@H](Cc2c[nH]cn2)C(=O)N[C@@H](Cc2c[nH]cn2)C(=O)N[C@@H](Cc2c[nH]cn2)C(=O)N[C@@H](Cc2c[nH]cn2)C(=O)N[C@@H](Cc2c[nH]cn2)C(=O)N[C@@H](Cc2c[nH]cn2)C(=O)N[C@@H](Cc2c[nH]cn2)C(=O)N[C@@H](Cc2c[nH]cn2)C(=O)N[C@@H](Cc2c[nH]cn2)C(=O)N[C@@H](Cc2c[nH]cn2)C(=O)N[C@@H](Cc2c[nH]cn2)C(=O)N[C@@H](Cc2c[nH]cn2)C(=O)N[C@@H](CS)C(=O)N[C@H](C(=O)N[C@@H](CCCNC(=N)N)C(=O)N[C@@H](C)C(=O)N[C@@H](CCCNC(=N)N)C(=O)N[C@H](C(=O)N[C@@H](CCCNC(=N)N)C(=O)O)[C@@H](C)O)C(C)C)C1=O)C(=O)O)[C@@H](C)O)C(C)C)[C@@H](C)O)[C@@H](C)O)[C@@H](C)CC)[C@@H](C)CC)[C@@H](C)CC)C(C)C (stereo partly shown) | Programmed cell death 1 ligand 1 (Cd274, Mus musculus, UniProt Q9EP73) | western blot | 4T1 | 0.5 µM, 12 h | baseline: untreated | protein level | 105% |
| O=S(=O)(c1ccc(-c2ccc3ncnc(Nc4ccc(OCc5cccc(Br)c5)c(Cl)c4)c3c2)cc1)N1CCOCC1 | Leishmania major | intracellular amastigote growth, luciferase | RAW264.7 macrophages |  |  | EC50 | 470 nM |
| N#Cc1cnc2sc(C(=O)O)cc2c1N1CCc2[nH]nc(C(=O)N[C@@H](CC(=O)NCCOCCN3CCOCC3)c3cccc(Br)c3)c2C1 | Interleukin-1 receptor-like 2 (IL1RL2, Homo sapiens, UniProt Q9HB29) | reporter gene (SEAP), inhibitor, HEK-Blue IL-36R reporter | HEK-Blue IL-36R cells | 100 µM, 6 h, added: IL36G 0.01 ng/mL |  | remaining activity | 24.3% |
| O=C(CCCCCCS)Nc1ccccc1 | Histone deacetylase 8 (HDAC8, Homo sapiens, UniProt Q9BY41) | ITC | Tris-HCl buffer | concentration not given, 303 K |  | binding stoichiometry | 1 |
| O=S(=O)(c1ccc(-c2ccc3ncnc(Nc4ccc(OCc5ccccc5F)c(Cl)c4)c3c2)cc1)N1CCOCC1 | Leishmania major | intracellular amastigote growth, luciferase | RAW264.7 macrophages |  |  | EC50 | > 15000 nM |
| O=C(Nc1cc(C(=O)Nc2ccc(S(=O)(=O)O)cc2S(=O)(=O)O)cc(C(=O)Nc2ccc(S(=O)(=O)O)cc2S(=O)(=O)O)c1)Nc1cc(C(=O)Nc2ccc(S(=O)(=O)O)cc2S(=O)(=O)O)cc(C(=O)Nc2ccc(S(=O)(=O)O)cc2S(=O)(=O)O)c1 | P2X purinoceptor 1 (P2RX1, Homo sapiens, UniProt P51575) | antagonist, calcium influx |  | 3.16 nM, added: submaximal α,β-methylene ATP | baseline: ionomycin response | calcium influx | 89.2% |
| CC(C)CCN1COc2ccc3c4c(oc3c2C1)C(=O)c1ccccc1C4=O | USP14 | enzyme activity, inhibitor |  | 17 µM |  | inhibition | 30% |
| CC[C@H](C)[C@H](NC(=O)[C@@H](NC(=O)[C@@H](NC(=O)[C@@H](NC(=O)[C@H](CCCNC(=N)N)NC(=O)[C@H](CCC(=O)O)NC(=O)[C@H](CCC(=O)O)NC(=O)[C@H](C)NC(=O)[C@H](CCC(=O)O)NC(=O)CNC(=O)[C@H](C)NC(=O)CN)C(C)C)C(C)C)C(C)C)C(=O)N[C@@H](CO)C(=O)N[C@@H](CO)C(=O)N[C@@H](CO)C(=O)N[C@@H](CCC(=O)O)C(=O)N[C@@H](CC(=O)O)C(=O)N[C@@H](CO)C(=O)N[C@@H](CC(=O)O)C(=O)N[C@@H](C)C(=O)N[C@@H](CCC(=O)O)C(=O)N[C@@H](CC(N)=O)C(=O)N[C@@H](CO)C(=O)N[C@@H](CO)C(=O)N[C@@H](CO)C(=O)N[C@@H](CCCNC(=N)N)C(=O)N[C@@H](Cc1ccc(O)cc1)C(=O)O | Small ubiquitin-related modifier 1 (Homo sapiens, UniProt P63165, C52A) | isothermal titration calorimetry |  | concentration not given, pH 7.4, SUMO1 construct |  | enthalpy change (ΔH) | 0.5 ± 0.04 kcal/mol |
| COc1cc(-c2cn(C)c(=O)c3cnccc23)cc(OC)c1CN(C)C | Histone acetyltransferase p300 (EP300, Homo sapiens, UniProt Q09472) |  |  |  |  | ΔTm | 0.9 °C |
| C#CCOC(=O)[C@@]1(C)C=C(C(=O)Nc2cccc(C(=O)Nc3ccc(C)c(Nc4nccc(-c5cccnc5)n4)c3)c2)C(=O)CC1 | Mitogen-activated protein kinase 9 (MAPK9, Homo sapiens, UniProt P45984) | enzyme activity, inhibitor |  | 8.363e-05 µM, unit not given | baseline: vehicle | remaining activity | 1.01 |

Excerpt of the above:
| SMILES | tested on | test | system | conditions | scale | endpoint | value |
| --- | --- | --- | --- | --- | --- | --- | --- |
| Cc1cc(N)n(N)c(=O)c1 | USP14 | enzyme activity, inhibitor |  | 17 µM |  | inhibition | 36% |
| [N-]=[N+]=N[C@]1(COP(=O)(O)OP(=O)(O)OP(=O)(O)O)O[C@@H](n2ccc(N)nc2=O)[C@@H](F)[C@@H]1O | DNA polymerase subunit gamma-1 (POLG, Homo sapiens, UniProt P54098) | single-nucleotide incorporation, substrate |  |  |  | Vmax | 0.29 product fraction |
| CC(C)Oc1cc(Cl)ccc1CNc1cc(-c2ccccc2)nc2ncnn12 | G-protein coupled receptor 3 (GPR3, Homo sapiens, UniProt P46089, L136A) | cAMP level, cAMP GloSensor |  | 100 nM | higher = more cAMP | cAMP luminescence | 51800 a.u. and 48900 a.u. and 37900 a.u. and 52100 a.u. |
| COC(=O)Cc1cc2c(cc1C(=O)c1cccc(Br)c1)OCO2 | Gria2/Glutamate receptor 3 | glutamate-evoked current, whole-cell patch clamp | HEK-293T | concentration not given, glutamate alone after washout, added: glutamate |  | current amplitude after recovery | 485 ± 41 pA |
